Experimental data of several laboratories.
Protocols differ between the studies behind these lines. ± gives the spread as reported.

| SMILES | cell line | assay | conditions | how to read | measurement | result |
| --- | --- | --- | --- | --- | --- | --- |
| CC/C=C\C/C=C\C/C=C\C/C=C\C/C=C\C/C=C\CCC(=O)Nc1ccn(C2OC(CO)C(O)C2(F)F)c(=O)n1 (centres unmarked) | SN12C | NCI60 screen | – | – | CC50 | 33.8 µM |
| C[P+](c1ccccc1)(c1ccccc1)c1ccccc1 | A-375 | cell growth or viability, MTT | 72 h | – | GI50 | 33.3 µM |
| Cc1cc(Nc2nc(C[C@@]3(C(=O)O)CCN(Cc4cccc(Cl)c4F)[C@H](C)C3)cc(C)c2F)[nH]n1 | NCI-H446 | caspase-3/7 activity | 24 or 48 h | reference: untreated | lowest effective concentration | 0.12 µM |
| CCCc1cc(OC)c(OC)c(OC)c1OC | T47D | cell growth or viability, MTT | 72 h | – | GI50 | 13.3 µM |
| CC(C)CC(O)(CC(C)C)c1cn(C(=O)N2CCCC2)nn1 | mouse T-cells | N-terminal labeled proteins, N-terminal enrichment proteomics, item: ARHGEF2 | 1 nM, 6 h | reference: DMSO | SILAC ratio | 4.41 ± 0.55 |
| CNC(=O)c1cc(Oc2ccc(NC(=O)c3ccc(-c4cccc(COC(=O)CCC(=O)OC5OC6OC7(C)CCC8C(C)CCC(C5C)C68OO7)c4)cn3)cc2)ccn1 (centres unmarked) | Huh-7 | western blot | concentration not given, 48 h | – | Bax protein level | increased |
| CC[C@@]1(O)C(=O)OCc2c1cc1n(c2=O)Cc2cc3cc(OC(=O)CCCC(=O)NCC(=O)N[C@@H](Cc4ccccc4)C(=O)N[C@@H](Cc4ccccc4)C(=O)N[C@@H](Cc4ccc(OP(=O)(O)O)cc4)C(=O)NCCSSCCNC(=O)CCC(=O)N[C@@H](CCC(=O)O)C(=O)N[C@@H](CCCNC(=N)N)C(=O)NCC(=O)N[C@@H](CC(=O)O)C(=O)O)ccc3nc2-1 | HepG2 spheroids | confocal microscopy | 100 µM, 6 h | – | penetration depth | 100 µm |
| CC1(C)CC([n+]2cc([NH-])on2)CC(C)(C)N1O | hTM-80 | superoxide dismutase activity | concentration not given | reference: vehicle | fold increase | 40 fold |
| CC[C@@H](C(=O)[C@@H](C)[C@@H](O)[C@H](C)[C@@H]1O[C@@H]([C@@H](CC)C(=O)O)CC[C@@H]1C)[C@H]1O[C@]2(C=C[C@H](NCc3ccccc3)[C@]3(CC[C@@](C)([C@H]4CC[C@](O)(CC)[C@H](C)O4)O3)O2)[C@H](C)C[C@@H]1C | HMLER CD24low/CD44high | cell viability, CellTiter-Blue | 72 h | reference: IC50 HMLER CD24high/CD44low over CD24low/CD44high | selectivity ratio | 6.2 |
| CN1C(=O)C2(Cc3ccc(CC45SSC(CO)(C(=O)N4C)N(C)C5=O)cc3)SSC1(CO)C(=O)N2C (racemic) | MCF7 | microarray, item: CITED2 | 600 nM, unit not given, added: deferoxamine 300 µM | reference: deferoxamine alone | mRNA level change | -1.5 |
| COC1=C2CC(C)CC(OC)C(O)C(C)C3OC3(C)C(OC(N)=O)C(OC)C=CC=C(C)C(=O)NC(=CC1=O)C2=O (centres unmarked) | SK-BR-3 | Western blot, item: Hsp70 and Hsp90 | concentration not given, 24 h | – | protein level | increased |

Repeated from above:
| SMILES | cell line | assay | conditions | how to read | measurement | result |
| --- | --- | --- | --- | --- | --- | --- |
| CCCc1cc(OC)c(OC)c(OC)c1OC | T47D | cell growth or viability, MTT | 72 h | – | GI50 | 13.3 µM |
| CC[C@@H](C(=O)[C@@H](C)[C@@H](O)[C@H](C)[C@@H]1O[C@@H]([C@@H](CC)C(=O)O)CC[C@@H]1C)[C@H]1O[C@]2(C=C[C@H](NCc3ccccc3)[C@]3(CC[C@@](C)([C@H]4CC[C@](O)(CC)[C@H](C)O4)O3)O2)[C@H](C)C[C@@H]1C | HMLER CD24low/CD44high | cell viability, CellTiter-Blue | 72 h | reference: IC50 HMLER CD24high/CD44low over CD24low/CD44high | selectivity ratio | 6.2 |
